Results gathered from unrelated publications.
Protocols differ between the studies behind these lines. ± marks the error that the study gave.

SMILES | cell line | assay | setting | how to read | measurement | value
Cc1cc(Nc2ncc3c(n2)N(C)C(=O)N(c2cc(NC(=O)c4cccc(C(F)(F)F)c4)ccc2C)C3)n(C)n1 | HepG2 (FGFR4 overexpressing) | cell proliferation, CellTiter-Glo | 72 h |  | GI50 | 0.597 ± 0.43 µM
COC(=O)[C@@]1(C)C=C(C(=O)Nc2cccc(C(=O)NC34CC(Nc5nccc(-c6cccnc6)n5)(C3)C4)c2)C(=O)CC1 | HEK293 AP1 reporter cells | reporter gene, inhibitor, luciferase reporter | 10 µM, 6 h, unit not given, with: PMA | reference: PMA-stimulated | AP1 reporter activity | 0.115
CN(C)C(=O)Cn1cc(-c2ccc(-c3cncc4ccncc34)cc2)cn1 | HL-60 with human NK cells | ADCC, chromium-51 release | concentration not given, with: CD33 antibody BI 836858 | reference: antibody alone | increase in lysis | 7 to 17%
CCN1CCN(c2ccc(Nc3ncc4c(n3)N(C)C(=O)N(c3cc(NC(=O)c5cccc(C(F)(F)F)c5)ccc3C)C4)cn2)CC1 | Huh-7 (FGFR4 overexpressing) | cell proliferation, CellTiter-Glo | 72 h |  | GI50 | 0.021 ± 0.01 µM
COC1=CC(=O)O/C1=C(\OC)c1ccccc1 | MCF7 transfected | ERE reporter gene, agonist | with: ICI 182780 1 µM |  | luciferase induction | inhibited
COc1ccc(CCC2OC(=O)C3CCCCN3C(=O)C(=O)C(C)(C)COC(=O)C=CCCN(C)C(=O)CNC(=O)C(COC(C)(C)C)N(C)C(=O)C(Cc3ccc4ccccc4c3)NC(=O)C(C)N(C)C(=O)COc3cccc2c3)cc1OC (stereo not shown) | HEK-293T | alamar blue |  |  | cell proliferation | inhibited
CCN1CCN(c2ccc(Nc3ncc4c(n3)N(C)C(=O)N(c3cc(NC(=O)c5cccc(C(F)(F)F)c5)ccc3C)C4)cc2)CC1 | Hep3B (FGFR4 overexpressing) | cell proliferation, CellTiter-Glo | 72 h |  | GI50 | 0.115 ± 0.02 µM
CCOc1ccc(S(=O)(=O)NC(=O)Cc2ccc(I)cc2)cc1Br | THP1-Dual | IRF reporter gene | 100 µM, 16 h, with: ht-DNA transfection |  | inhibition | 76%
Cc1nn(C)c2c(C(C(=O)O)N3CC(OCCCCc4ccc5c(n4)NCCC5)C3)cccc12 (stereo not shown) | PAH PASMCs | Western blot, item: FAK Tyr397 |  |  | FAK phosphorylation | decreased
O=C(NNC(=S)Nc1cccc(C(F)(F)F)c1)c1cccn1-c1ccc(F)cc1 | primary rat cortical neurons | item: tau pS396/pS404 | concentration not given |  | reduction in p-tau | ~50%
CC(=O)N1CCN(c2ccc(Nc3ncc4c(n3)N(C)C(=O)N(c3cc(NC(=O)c5cccc(C(F)(F)F)c5)ccc3C)C4)cn2)CC1 | Hep3B (FGFR4 overexpressing) | cell proliferation, CellTiter-Glo | 72 h |  | GI50 | 0.159 ± 0.11 µM
Nc1ccc2cc(N)ncc2c1 | LX-2 | western blot, item: α-SMA | concentration not given, with: TGF-β1 |  | protein level | decreased
CCCCCCCCCCCCCC[C@@H](O)[C@@H](O)[C@H](CO[C@H]1O[C@H](CO)[C@H](O)[C@H](O)[C@H]1O)NC(=O)CCCCCCCCCCCCCCc1ccccc1 | human Vα24+ NKT cells | agonist, ELISA | 10 ng/mL, 24 h, unit not given, with: CD1d-transfected HeLa cells | reference: α-GalCer | IFN-γ secretion | 0.17 ± 0.01
Cc1ccccc1C(C(=O)NC1CCCCC1)N(C(=O)Cn1ccnc1C)c1cccc([125I])c1 (racemic) | wild-type IDH1 astrocytoma cells | cell uptake | 50 µM | reference: uptake without blocker | uptake increase | 1.5 to 1.8 fold
CC(=O)OC1CC[C@H]2C3=C(CC[C@]12C)[C@]1(C)c2c(coc2C3=O)[C@H](OC(C)=O)[C@@H]2O[C@@H]21 (stereo partly shown) | MDA-MB-231 | DCFH-DA fluorescence | concentration not given, unit not given | reference: untreated | ROS level | 1.62
CCCCCCCCCCCCCC[C@@H](O)[C@@H](O)[C@H](CO[C@H]1O[C@H](CO)[C@H](O)[C@H](O)[C@H]1O)NC(=O)CCCCCCCCCCc1ccccc1 | human Vα24+ NKT cells | agonist | 10 ng/mL, 24 h, with: CD1d-transfected HeLa cells | reference: α-GalCer | IFN-γ/IL-4 ratio | 1.4 ± 0.15
O=C(N/N=C/c1ccc(Sc2ccccn2)s1)c1cccc(Cl)c1 | D458 medulloblastoma | cell growth |  |  | GI50 | 3.7 µM
C=CC(=O)N1CCC(c2cc(Nc3cc4n(n3)CCOC4)c3ncnn3c2)C1 (single isomer, unassigned) | TMD8 | calcium flux, FLIPR | 1 h preincubation, with: anti-IgM |  | maximum inhibition | 13.1%
CCOc1ccccc1Nc1nnc(SCC(=O)Nc2cc(F)ccc2F)s1 | A549 spheroids with human PBMCs |  | 25 µM, 48 h, E:T 5:1, with: anti-CD3 0.3 µg/mL |  | IFN-γ level | 18 ± 3 pg/mL
CCCCCCCCCCCCCC[C@@H](O)[C@@H](O)[C@H](CO[C@H]1O[C@H](CO)[C@H](O)[C@H](O)[C@H]1O)NC(=O)CCCCCCCCCCc1ccc(F)cc1 | human Vα24+ NKT cells | agonist, ELISA | 10 ng/mL, 24 h, unit not given, with: CD1d-transfected HeLa cells | reference: α-GalCer | IFN-γ secretion | 2.13 ± 0.003
O=C(N/N=C/c1ccc(Sc2ncccn2)o1)c1cccc(OC(F)(F)F)c1 | D458 medulloblastoma | cell growth |  |  | GI50 | 76 µM
CN1CCN(c2cc(C(=O)Nc3ccc4c(c3)-c3c(c(C(N)=O)nn3-c3ccc(F)cc3)CC4)c(Cl)cn2)CC1 | rheumatoid arthritis synovial fibroblasts | proximity ligation |  |  | NEMO-IKK-2 interaction | no effect
O=C(Nc1ccc2cc(NC(=O)C(F)(F)F)nc(Br)c2c1)C(F)(F)F | LX-2 | western blot, item: collagen I | concentration not given, with: TGF-β1 |  | protein level | decreased
CCCCCCCCCCCCCC[C@@H](O)[C@@H](O)[C@H](CO[C@H]1O[C@H](CO)[C@H](O)[C@H](O)[C@H]1O)NC(=O)CCCCCCCc1ccc(-c2ccccc2)cc1 | human Vα24+ NKT cells | agonist, ELISA | 10 ng/mL, 24 h, unit not given, with: CD1d-transfected HeLa cells | reference: α-GalCer | IFN-γ secretion | 0.17 ± 0.003
O=C(Nc1ccc([N+](=O)[O-])cc1)N[C@H](Cc1c[nH]c2ccccc12)C(=O)NCC1(c2ccccn2)CCCCC1 | human neutrophils | Ca2+ mobilization, agonist | with: probenecid 2.5 mM |  | EC50 | 0.46 µM
O=C1Nc2cccc(C#CC3(O)CCNCC3)c2/C1=C/c1cc2ccccc2[nH]1 | C8161.9 expressing LIC2 S202A |  | 100 nM | reference: DMSO | invadopodia formation | no effect
C=CC(=O)Nc1cccc(N(C(=O)OCc2ccc(F)cc2)c2ccnc(Nc3ccn(C)n3)n2)c1 | Ba/F3 EGFR V769_D770insASV | cell growth |  | above 10 µM not active | EC50 | 0.094 ± 0.0053 µM
CC(=NN=c1[nH]c2cc(F)c(F)cc2n1C)c1ccc(F)cn1 | ER+ breast cancer PDX organoids | organoid growth, inhibitor | two weeks |  | effective concentration | 62.5 nM

For quick reference, copied from above:
SMILES | cell line | assay | setting | how to read | measurement | value
Cc1ccccc1C(C(=O)NC1CCCCC1)N(C(=O)Cn1ccnc1C)c1cccc([125I])c1 (racemic) | wild-type IDH1 astrocytoma cells | cell uptake | 50 µM | reference: uptake without blocker | uptake increase | 1.5 to 1.8 fold
CC(=O)OC1CC[C@H]2C3=C(CC[C@]12C)[C@]1(C)c2c(coc2C3=O)[C@H](OC(C)=O)[C@@H]2O[C@@H]21 (stereo partly shown) | MDA-MB-231 | DCFH-DA fluorescence | concentration not given, unit not given | reference: untreated | ROS level | 1.62
